Literature values, collected from citations in different studies.
Compare with care: the assays were run in different laboratories. ± gives the spread as reported.

| Substance | test | system | conditions | how to read | quantity | value |
| --- | --- | --- | --- | --- | --- | --- |
| Br.Cc1ccc(Sc2ccccc2N2CCNCC2)c(C)c1 | – | human | together with: omeprazole | – | pharmacokinetics | no effect |
| Nc1nc2c(nc(Sc3ccc(Cl)cc3)n2C2O[C@@H]3COP(=O)(O)O[C@H]3[C@H]2O)c(=O)[nH]1 (stereo in doubt) | – | methanol/water | – | – | log Kw | 2.52 |
| O=C1CC(c2ccc(O)cc2)Oc2cc(O)cc(O)c21 (stereo not shown) | – | rat | oral, in meal, 230 µmol/rat, 24 h | – | urinary excretion as conjugates | ~30% |
| GGVVIA | filtration | peptide, sodium phosphate buffer | pH 7.4 | – | solubility | 143 ± 27 µM |
| CC[C@H](C)[C@H](NC(=O)[C@H](CCCCN)NC(=O)[C@H](CCCCN)NC(=O)[C@H](Cc1ccccc1)NC(=O)[C@H](CC(C)C)NC(=O)[C@H](CCCCN)NC(=O)[C@@H](N)CCCCN)C(=O)N[C@@H](CC(C)C)C(=O)N[C@@H](CCCCN)C(=O)N[C@@H](Cc1ccc(O)cc1)C(=O)N[C@@H](CC(C)C)C(=O)N[C@@H](C)C(=O)NCC(=O)N1CCC[C@H]1C(=O)N[C@@H](C)C(=O)N[C@@H](CCCCN)C(=O)N[C@@H](Cc1ccccc1)C(=O)N[C@@H](CC(C)C)C(=O)N[C@@H](Cc1c[nH]cn1)C(=O)N[C@@H](CO)C(=O)N[C@@H](C)C(=O)N[C@@H](CCCCN)C(=O)O | – | horse erythrocytes 5 % v/v | 150 µM | – | hemolysis | 0 ± 0.5% |
| O=C(/C=C/C=C/c1ccc2c(c1)OCO2)N1CCCCC1 | carbamazepine elimination rate, item: carbamazepine | human | 20 mg, together with: carbamazepine 500 mg | – | inhibition | no inhibition |
| CNC(=O)c1cc(Oc2ccc(NC(=O)Nc3ccc(Cl)c(C(F)(F)F)c3)cc2)ccn1 | – | plasma | concentration not given | – | Cmax | 5.6 µM |
| Oc1cc(Cl)ccc1Oc1ccc(Cl)cc1Cl | – | juvenile Chinook salmon, whole body wet weight | concentration not given, field-collected | – | maximum whole-body concentration | 26.4 ng/g |
| CCN(CC)CCNC(=O)c1c(C)[nH]c(/C=C2\C(=O)Nc3ccc(F)cc32)c1C | item: parent plus desethyl metabolite | human patients, plasma | oral, 50 mg once daily, day 28 | – | Cmin | 62.8 ng/mL |
| COc1cccc2c1C(=O)c1c(O)c3c(c(O)c1C2=O)C[C@@](O)(C(=O)CO)C[C@@H]3O[C@H]1C[C@H](N)[C@H](O)[C@H](C)O1 | – | plasma | concentration not given | – | Cmax | 0.2 µM |
| CC1(COc2ccc3c(c2)ncn3-c2ccc3cccc(N4CCC(N)CC4)c3n2)COC1 | – | mouse, U-87 MG xenograft | 50 mg/kg twice daily | – | plasma concentration | 100 ng/mL |
| CC(C)(C)c1ccc(C(O)CCCN2CCC(C(O)(c3ccccc3)c3ccccc3)CC2)cc1 (stereo not shown) | – | rat | together with: cyclosporin A | – | log brain permeability-surface product | -1.39 mL/g/s |
| O=C(N/N=C/c1c(O)ccc2ccccc12)c1cc(-c2ccc3ccccc3c2)n[nH]1 | – | BALB/c mouse | intraperitoneal, 50 mg/kg, 1 h | – | plasma concentration | 5.9 ± 3.3 µM |
| CS(=O)(=O)OCCCCOS(C)(=O)=O | – | plasma | concentration not given | – | Cmax | 4.9 µM |
| CCCCC1=NC2(CCCC2)C(=O)N1Cc1ccc(-c2ccccc2S(=O)(=O)Nc2noc(C)c2C)c(COCC)c1 | – | healthy human volunteers | dose not given, together with: itraconazole | relative to: without itraconazole | AUCinf increase | 174% |
| C[C@H]1c2cccc(O)c2C(=O)C2=C(O)[C@]3(O)C(=O)C(C(N)=O)=C(O)[C@@H](N(C)C)[C@@H]3[C@@H](O)[C@@H]21 | – | water | hydrate | – | aqueous solubility | 0.26 log mg/mL |
| Cc1ccccc1-c1cc(N2CCN(C)CC2)ncc1N(C)C(=O)C(C)(C)c1cc(C(F)(F)F)cc(C(F)(F)F)c1 | – | patients, plasma | oral, dose not given, netupitant-palonosetron combination, together with: cyclophosphamide 500 to 1000 mg/m^2 IV | – | CL/F | 19.7 L/h |
| Nc1nc(NC2CC2)c2ncn([C@H]3C=C[C@@H](CO)C3)c2n1 | – | healthy, mostly White or Black | 600 mg, single dose, fasted, together with: dolutegravir 50 mg, lamivudine 300 mg | – | AUC(0-inf) | 14400 ng·h/mL |
| CCN(CC)Cc1cc(Nc2ccnc3cc(Cl)ccc23)ccc1O | – | rat | dose not given, outcome decreased, together with: ketoconazole | – | irreversible liver protein binding | decreased |

| Substance | test | system | conditions | how to read | quantity | value |
| --- | --- | --- | --- | --- | --- | --- |
| CN(C)C(=O)c1cc2cnc(Nc3ccc(N4CCNCC4)cn3)nc2n1C1CCCC1 | – | recurrent glioblastoma patients, CSF | oral, 900 mg/day, 5 days | – | unbound concentration | 0.37 µM |
| Cc1ccc(Nc2nccc(N(C)c3ccc4c(C)n(C)nc4c3)n2)cc1S(N)(=O)=O | – | patients | dose not given, grade 3 | – | patients with thrombocytopenia | 1% |
| O=C(O)CNC(=O)c1ccccc1[131I] | – | normal rat, urine | 10 min, together with: co-injected 99mTc-1 | – | percent injected dose | 53.2 ± 7.2 %ID |
| O=C1c2cccc3c2[C@H](CCC3)CN1[C@@H]1CN2CCC1CC2 | – | healthy volunteers, plasma | oral, dose not given, netupitant-palonosetron alone, ketoconazole study | – | Vz/F | 923 L |
| CN[C@@H]1[C@H](O)[C@H](NC)[C@H]2O[C@@]3(O)C(=O)C[C@@H](C)O[C@H]3O[C@@H]2[C@H]1O | – | plasma | concentration not given | – | Cmax | 323 µM |
| CNCCC=C1c2ccccc2CCc2ccccc21 | – | – | – | – | logP | 3.9 |
| Cc1nc2cccc(OCC(C)(C)C(=O)NC(C)C)c2c(N)c1C(=O)O | phase I biotransformation | human | 60 min | relative to: compound | metabolism | ≤ 0.1% |
| CC[C@H](C)[C@H](NC(=O)[C@H](CCCCN)NC(=O)[C@H](CCCCN)NC(=O)[C@@H](Cc1ccccc1)NC(=O)[C@H](CC(C)C)NC(=O)[C@H](CCCCN)NC(=O)[C@@H](N)CCCCN)C(=O)N[C@@H](CC(C)C)C(=O)N[C@@H](CCCCN)C(=O)N[C@@H](Cc1ccc(O)cc1)C(=O)N[C@@H](CC(C)C)C(N)=O | – | horse erythrocytes 5 % v/v | 150 µM | – | hemolysis | 2 ± 2% |
| CCOc1ccc(Cc2cc([C@]34OC[C@](CO)(O3)[C@@H](O)[C@H](O)[C@H]4O)ccc2Cl)cc1 | – | human | – | – | absolute bioavailability | ~100% |
| CCn1c(=O)c2c(nc(/C=C/c3ccc(OC)c(OC)c3)n2C)n(CC)c1=O | – | urine | concentration not given | – | unchanged drug in urine | not detected |
| CC[C@H](C)CCCCC(=O)N[C@@H](CCN)C(=O)N[C@H](C(=O)N[C@@H](CCN)C(=O)N[C@H]1CCNC(=O)[C@H]([C@@H](C)O)NC(=O)[C@H](CCN)NC(=O)[C@H](CCN)NC(=O)[C@H](CC(C)C)NC(=O)[C@@H](Cc2ccccc2)NC(=O)[C@H](CCN)NC1=O)[C@@H](C)O | – | human patients | intravenous, two-compartment population PK model | – | intercompartmental clearance | 9.86 L/h |
| CON=C(N)c1ccc(-c2ccc(-c3ccc(C(N)=NOC)cc3)o2)cc1 | substrate | human liver microsomes | 0.5 mg/mL protein | – | Km | 2.1 µM |
| CN(C)CCCC1(c2ccc(F)cc2)OCc2cc(C#N)ccc21 (stereo not shown) | – | human | – | relative to: patients over 65 years over younger | mean concentration ratio | 2 fold |
| NC(=O)c1cnccn1 | – | plasma | concentration not given | – | Cmax | 325 µM |
| COc1cccc(CCc2ccccc2OCC(CN(C)C)OC(=O)CCC(=O)O)c1 (racemic) | – | human | oral, 400 mg single dose as hydrochloride, geometric mean | – | Tmax | 1.37 h |
| Nc1ccn([C@@H]2CS[C@H](CO)O2)c(=O)n1 | – | healthy, mostly White or Black | 300 mg, single dose, fasted, together with: abacavir 600 mg, dolutegravir 50 mg | – | AUC(0-inf) | 13100 ng·h/mL |
| O=C(O)c1ccccc1O | – | plasma | concentration not given | – | Cmax | 605 µM |
| CO[C@H]1C[C@@H]2CC[C@@H](C)[C@@](O)(O2)C(=O)C(=O)N2CCCC[C@H]2C(=O)O[C@H]([C@H](C)C[C@@H]2CC[C@@H](O)[C@H](OC)C2)CC(=O)[C@H](C)/C=C(\C)[C@@H](O)[C@@H](OC)C(=O)[C@H](C)C[C@H](C)/C=C/C=C/C=C/1C | population PK model | paediatric neurofibromatosis patients | – | – | absorption rate constant | 2.77 ± 1.33 h⁻¹ |

A few entries again:
| Substance | test | system | conditions | how to read | quantity | value |
| --- | --- | --- | --- | --- | --- | --- |
| Cc1nc2cccc(OCC(C)(C)C(=O)NC(C)C)c2c(N)c1C(=O)O | phase I biotransformation | human | 60 min | relative to: compound | metabolism | ≤ 0.1% |
| CC[C@H](C)[C@H](NC(=O)[C@H](CCCCN)NC(=O)[C@H](CCCCN)NC(=O)[C@@H](Cc1ccccc1)NC(=O)[C@H](CC(C)C)NC(=O)[C@H](CCCCN)NC(=O)[C@@H](N)CCCCN)C(=O)N[C@@H](CC(C)C)C(=O)N[C@@H](CCCCN)C(=O)N[C@@H](Cc1ccc(O)cc1)C(=O)N[C@@H](CC(C)C)C(N)=O | – | horse erythrocytes 5 % v/v | 150 µM | – | hemolysis | 2 ± 2% |
| CCOc1ccc(Cc2cc([C@]34OC[C@](CO)(O3)[C@@H](O)[C@H](O)[C@H]4O)ccc2Cl)cc1 | – | human | – | – | absolute bioavailability | ~100% |
| CCn1c(=O)c2c(nc(/C=C/c3ccc(OC)c(OC)c3)n2C)n(CC)c1=O | – | urine | concentration not given | – | unchanged drug in urine | not detected |
| CC[C@H](C)CCCCC(=O)N[C@@H](CCN)C(=O)N[C@H](C(=O)N[C@@H](CCN)C(=O)N[C@H]1CCNC(=O)[C@H]([C@@H](C)O)NC(=O)[C@H](CCN)NC(=O)[C@H](CCN)NC(=O)[C@H](CC(C)C)NC(=O)[C@@H](Cc2ccccc2)NC(=O)[C@H](CCN)NC1=O)[C@@H](C)O | – | human patients | intravenous, two-compartment population PK model | – | intercompartmental clearance | 9.86 L/h |
